Experimental data of several laboratories.
A part holds a random share of what one study measured. Changes are numbered by the printed parent chain.

Block 1 — target: CCNA1, cyclin fold, Cln2 fusion (human); technique: yeast growth competition, sequencing; medium: yeast; setting: weak parent motif; relative to: not given; reading: higher = stronger binding
Starting sequence: ORC1 docking peptide (human); PRARKRLELGNLG
| Variant | normalised enrichment score |
| --- | --- |
| PRARKRLELGFLG [N11F] | 0.23 |
| PRARKRLELGRLG [N11R] | 0.43 |
| PRARKRLELGNLR [G13R] | 0.294 |
| PRARKRKELGNLG [L7K] | 0.705 |
| PRARKRLELGNLD [G13D] | 0.837 |
| PRARKRLELGNIG [L12I] | 0.324 |

Block 2 — technique: RNA Bind-n-Seq; molecule type: RNA; medium: in vitro; concentration: not given; relative to: input RNA pool; reading: higher = stronger binding
Target: RING finger protein unkempt homolog, zinc fingers 1-6, GST-SBP tag (UNK, Homo sapiens, UniProt Q9C0B0, residues 30-357)
Chain of UniProt Q9C0B0 (30-357, looked up): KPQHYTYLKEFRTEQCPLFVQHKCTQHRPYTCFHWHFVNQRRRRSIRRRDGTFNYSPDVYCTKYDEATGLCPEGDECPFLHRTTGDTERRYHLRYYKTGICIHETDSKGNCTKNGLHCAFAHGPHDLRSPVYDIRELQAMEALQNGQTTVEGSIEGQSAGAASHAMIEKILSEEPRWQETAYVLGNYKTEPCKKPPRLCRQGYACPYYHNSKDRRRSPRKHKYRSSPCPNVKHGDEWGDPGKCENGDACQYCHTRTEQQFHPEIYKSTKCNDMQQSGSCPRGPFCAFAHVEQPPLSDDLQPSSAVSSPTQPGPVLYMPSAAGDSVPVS
Setting: RNA with constant flanks, human-mouse chimeric sites, ends assumed
| Strand | bound/input enrichment |
| --- | --- |
| GGGAGUUCUACAGUCCGACGAUCAGAAUCUUGGGACUGUUUUACUUAAUUGGUCAUUGAUAUCUCAACAAACAUGGAGAUAAGAUUAGAAGUUUUGACAUCAACAGGUAUUAAGCAGAAAAAACCAUGGCCACGUGUCUCCUGCAACAGAGGAUUGAGCAUCA | 0.656 ratio |
| GGGAGUUCUACAGUCCGACGAUCAUCAAGUACUUUGGGGACAUCAUUAGUGUGGGACAGAGACUGUUGCAAGGAGCUCGGAUCUUAGGGAUUCCAGUUAUCAUAACGGAACAAUACCCUAAAGGACUUGGCAGCACCGUUCAACAACAGAGGAUUGAGCAUCA | 0.177 ratio |
| GGGAGUUCUACAGUCCGACGAUCGCGGCAGAAUCAUGGAGGACAUAAUGCAGCUCCCCAAAGCGCGCGUCAACGCCAGCAUGUUACCACAAUUCAUCGACCGGCCCGUGUGCUUCGUGGGGAAGCUGGAAAAGAUUCAUCCCACAACAGAGGAUUGAGCAUCA | 0.133 ratio |
| GGGAGUUCUACAGUCCGACGAUCAACUUCGUGCAUCGGUUUCCCUUUGUAGCUGUUUCAAUUGGCUUUGCUGUGAAUAAAGAGAUGGAGUUUGGAAUUGUGUACAGCUGUGUGGAAGAUAAGAUGUACACUGCCAGAAAAGGGCAACAGAGGAUUGAGCAUCA | 0.46 ratio |

Block 3 — technique: protein binding microarray; molecule type: double-stranded DNA, one strand shown; medium: in vitro; concentration: not given; relative to: not given; reading: higher = stronger binding
Target: Histone acetyltransferase KAT6A, winged helix 1, GST fusion (KAT6A, Homo sapiens, UniProt Q92794, residues 1-85)
Setting: 8-mer, flanks averaged, mean of 2 arrays, mostly near background
Construct (chain): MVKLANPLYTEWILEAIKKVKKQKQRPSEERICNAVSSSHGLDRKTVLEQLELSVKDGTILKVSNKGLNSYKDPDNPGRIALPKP
| Strand | E-score |
| --- | --- |
| ATAGAATG | -0.0579 |
| AATTTAGT | -0.0695 |
| ATTCAGAG | -0.104 |
| AGTCGAGA | -0.182 |
| CGAGTCTA | -0.00738 |
| CTAAACTA | -0.1 |

Further values, each from its own experiment
| Substance | target | assay | system | setting | how to read | quantity | value |
| --- | --- | --- | --- | --- | --- | --- | --- |
| PhoQ, residues 284 288 289 292 302 303 SSYNSA | PhoP, residues 12 14 15 18 19 LWHVM (Escherichia coli, UniProt P23836) | Sort-seq, item: YFP reporter | E. coli | PhoQ-PhoP variant library, together with: 10 µM Mg2+ | relative to: high Mg2+ state, higher = stronger signaling | fold induction | 21.7 |

Some of these lines once more (block 1):
| Variant | normalised enrichment score |
| --- | --- |
| PRARKRKELGNLG [L7K] | 0.705 |
